Published values gathered from unrelated publications.
A part holds a random share of what one study measured. ± marks the error that the study gave.
UniProt O43318, sequence (whole entry, looked up): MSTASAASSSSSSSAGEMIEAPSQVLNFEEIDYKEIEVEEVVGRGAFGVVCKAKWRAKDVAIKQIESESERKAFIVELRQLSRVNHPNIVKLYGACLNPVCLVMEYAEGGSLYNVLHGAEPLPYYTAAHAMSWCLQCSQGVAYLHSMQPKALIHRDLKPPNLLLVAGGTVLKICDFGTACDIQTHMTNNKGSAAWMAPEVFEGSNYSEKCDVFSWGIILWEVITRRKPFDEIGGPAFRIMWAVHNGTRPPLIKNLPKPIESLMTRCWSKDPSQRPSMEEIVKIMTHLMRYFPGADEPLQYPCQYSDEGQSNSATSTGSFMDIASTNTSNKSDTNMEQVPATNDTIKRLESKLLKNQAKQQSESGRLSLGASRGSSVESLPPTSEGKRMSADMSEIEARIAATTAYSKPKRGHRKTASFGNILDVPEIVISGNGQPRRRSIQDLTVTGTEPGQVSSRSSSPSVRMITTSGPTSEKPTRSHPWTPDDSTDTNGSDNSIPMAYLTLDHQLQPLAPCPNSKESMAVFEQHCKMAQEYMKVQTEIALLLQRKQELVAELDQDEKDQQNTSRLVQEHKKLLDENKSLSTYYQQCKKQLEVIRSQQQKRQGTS
UniProt Q9NYY3, sequence (whole entry, looked up): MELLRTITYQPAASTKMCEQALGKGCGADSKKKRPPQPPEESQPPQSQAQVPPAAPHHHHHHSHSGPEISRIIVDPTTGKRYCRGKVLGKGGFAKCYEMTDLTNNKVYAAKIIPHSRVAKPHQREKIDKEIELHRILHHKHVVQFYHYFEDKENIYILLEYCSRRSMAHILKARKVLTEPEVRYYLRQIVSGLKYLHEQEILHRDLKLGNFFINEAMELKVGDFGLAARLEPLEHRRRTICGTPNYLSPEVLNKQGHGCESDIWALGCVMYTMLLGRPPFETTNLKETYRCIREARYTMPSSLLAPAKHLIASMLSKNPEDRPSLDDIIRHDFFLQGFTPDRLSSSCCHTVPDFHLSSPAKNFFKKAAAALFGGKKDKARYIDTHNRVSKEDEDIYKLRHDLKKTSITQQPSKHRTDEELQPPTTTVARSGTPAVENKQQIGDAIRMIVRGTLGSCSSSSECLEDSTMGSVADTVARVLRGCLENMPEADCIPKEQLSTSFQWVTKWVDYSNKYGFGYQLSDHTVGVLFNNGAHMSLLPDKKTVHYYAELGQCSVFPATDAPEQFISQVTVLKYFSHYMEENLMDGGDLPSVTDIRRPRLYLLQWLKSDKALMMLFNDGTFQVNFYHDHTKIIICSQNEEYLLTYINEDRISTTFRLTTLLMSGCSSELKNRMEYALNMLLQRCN
UniProt Q06187, sequence (whole entry, looked up): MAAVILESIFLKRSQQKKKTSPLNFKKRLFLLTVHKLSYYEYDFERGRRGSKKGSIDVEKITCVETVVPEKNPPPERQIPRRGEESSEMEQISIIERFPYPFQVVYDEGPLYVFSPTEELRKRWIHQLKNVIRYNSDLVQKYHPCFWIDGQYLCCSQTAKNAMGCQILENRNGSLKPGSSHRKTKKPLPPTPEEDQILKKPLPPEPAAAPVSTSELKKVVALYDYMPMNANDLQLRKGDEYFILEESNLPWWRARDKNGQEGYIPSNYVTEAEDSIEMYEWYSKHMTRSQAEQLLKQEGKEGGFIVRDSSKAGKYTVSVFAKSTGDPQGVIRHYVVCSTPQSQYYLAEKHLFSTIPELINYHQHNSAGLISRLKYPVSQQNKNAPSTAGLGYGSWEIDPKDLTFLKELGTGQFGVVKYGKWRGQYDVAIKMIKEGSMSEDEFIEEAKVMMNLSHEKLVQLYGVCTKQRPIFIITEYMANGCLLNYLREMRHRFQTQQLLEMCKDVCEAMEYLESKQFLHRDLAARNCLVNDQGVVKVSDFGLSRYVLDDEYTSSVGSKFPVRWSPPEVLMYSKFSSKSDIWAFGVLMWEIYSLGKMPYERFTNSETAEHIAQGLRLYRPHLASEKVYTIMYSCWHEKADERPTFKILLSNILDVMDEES
UniProt O14757, sequence (whole entry, looked up): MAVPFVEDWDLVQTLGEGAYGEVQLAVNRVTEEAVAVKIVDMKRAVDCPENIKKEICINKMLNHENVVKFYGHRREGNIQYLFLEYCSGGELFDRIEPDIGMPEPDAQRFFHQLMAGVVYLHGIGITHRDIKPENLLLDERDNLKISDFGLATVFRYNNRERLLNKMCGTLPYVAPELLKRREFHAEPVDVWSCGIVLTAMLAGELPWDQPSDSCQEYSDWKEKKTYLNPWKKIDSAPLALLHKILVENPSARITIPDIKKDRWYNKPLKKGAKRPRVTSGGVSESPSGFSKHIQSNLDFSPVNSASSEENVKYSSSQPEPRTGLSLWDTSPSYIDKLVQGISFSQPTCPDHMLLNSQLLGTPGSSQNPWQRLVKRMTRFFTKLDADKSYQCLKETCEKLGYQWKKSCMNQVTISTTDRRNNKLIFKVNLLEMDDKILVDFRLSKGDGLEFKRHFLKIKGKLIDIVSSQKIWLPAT
UniProt P08581, sequence (whole entry, looked up): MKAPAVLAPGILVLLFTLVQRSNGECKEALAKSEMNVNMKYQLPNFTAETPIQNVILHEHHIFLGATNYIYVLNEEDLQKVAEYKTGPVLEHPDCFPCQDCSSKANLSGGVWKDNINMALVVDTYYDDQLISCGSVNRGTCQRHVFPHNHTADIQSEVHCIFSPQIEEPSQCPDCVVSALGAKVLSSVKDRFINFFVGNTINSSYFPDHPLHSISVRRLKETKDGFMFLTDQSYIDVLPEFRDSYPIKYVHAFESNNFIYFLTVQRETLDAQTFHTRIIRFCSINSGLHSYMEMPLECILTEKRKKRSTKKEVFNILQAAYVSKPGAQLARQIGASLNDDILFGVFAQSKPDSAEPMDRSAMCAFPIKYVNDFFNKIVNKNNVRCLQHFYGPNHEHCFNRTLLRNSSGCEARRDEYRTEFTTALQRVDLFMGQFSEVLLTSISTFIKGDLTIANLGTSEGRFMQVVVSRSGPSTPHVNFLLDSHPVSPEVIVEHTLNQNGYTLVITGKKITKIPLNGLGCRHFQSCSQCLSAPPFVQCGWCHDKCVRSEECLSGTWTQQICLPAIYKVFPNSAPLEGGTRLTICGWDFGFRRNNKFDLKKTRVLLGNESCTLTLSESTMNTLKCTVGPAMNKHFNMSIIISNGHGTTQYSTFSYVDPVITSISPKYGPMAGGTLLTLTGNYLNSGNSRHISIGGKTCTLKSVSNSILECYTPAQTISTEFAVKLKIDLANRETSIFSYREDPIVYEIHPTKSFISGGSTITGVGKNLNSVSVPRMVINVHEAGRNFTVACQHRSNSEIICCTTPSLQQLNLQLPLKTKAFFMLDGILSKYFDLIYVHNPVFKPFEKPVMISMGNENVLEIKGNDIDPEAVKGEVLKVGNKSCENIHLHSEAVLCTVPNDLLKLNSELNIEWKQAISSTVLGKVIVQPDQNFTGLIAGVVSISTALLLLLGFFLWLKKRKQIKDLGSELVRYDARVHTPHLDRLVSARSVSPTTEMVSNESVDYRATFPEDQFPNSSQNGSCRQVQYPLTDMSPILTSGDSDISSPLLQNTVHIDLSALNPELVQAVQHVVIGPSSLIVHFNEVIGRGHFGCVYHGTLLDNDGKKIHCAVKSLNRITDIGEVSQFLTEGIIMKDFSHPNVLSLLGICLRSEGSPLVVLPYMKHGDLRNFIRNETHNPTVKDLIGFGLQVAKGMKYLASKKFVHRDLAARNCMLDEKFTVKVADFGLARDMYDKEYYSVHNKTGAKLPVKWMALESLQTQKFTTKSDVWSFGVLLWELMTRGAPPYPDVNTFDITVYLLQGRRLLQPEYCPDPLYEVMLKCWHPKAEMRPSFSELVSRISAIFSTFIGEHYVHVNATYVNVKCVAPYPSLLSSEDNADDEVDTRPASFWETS
UniProt P51957, sequence (whole entry, looked up): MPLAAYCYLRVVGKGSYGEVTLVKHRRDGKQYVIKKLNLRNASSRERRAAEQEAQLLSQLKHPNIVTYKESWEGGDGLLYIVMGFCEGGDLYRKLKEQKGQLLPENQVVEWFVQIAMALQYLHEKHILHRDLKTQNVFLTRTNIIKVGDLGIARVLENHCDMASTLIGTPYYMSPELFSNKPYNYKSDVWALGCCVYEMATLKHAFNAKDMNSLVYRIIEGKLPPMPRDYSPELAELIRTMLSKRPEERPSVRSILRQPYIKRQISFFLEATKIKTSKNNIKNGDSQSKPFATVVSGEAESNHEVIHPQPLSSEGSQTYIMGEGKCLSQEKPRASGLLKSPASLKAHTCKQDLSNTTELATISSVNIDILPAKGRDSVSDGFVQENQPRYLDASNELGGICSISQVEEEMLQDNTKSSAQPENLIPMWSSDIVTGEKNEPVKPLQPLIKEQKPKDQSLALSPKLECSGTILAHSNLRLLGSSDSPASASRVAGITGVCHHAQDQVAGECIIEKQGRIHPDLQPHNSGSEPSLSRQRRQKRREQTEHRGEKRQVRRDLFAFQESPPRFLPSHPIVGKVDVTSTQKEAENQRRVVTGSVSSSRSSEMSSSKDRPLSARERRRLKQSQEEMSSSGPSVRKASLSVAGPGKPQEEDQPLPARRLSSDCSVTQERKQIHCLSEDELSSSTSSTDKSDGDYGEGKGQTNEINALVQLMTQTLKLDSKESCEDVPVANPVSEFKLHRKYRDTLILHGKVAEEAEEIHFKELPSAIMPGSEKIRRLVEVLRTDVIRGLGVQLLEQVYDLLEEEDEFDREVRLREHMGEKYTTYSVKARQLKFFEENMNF
UniProt P50750, sequence (whole entry, looked up): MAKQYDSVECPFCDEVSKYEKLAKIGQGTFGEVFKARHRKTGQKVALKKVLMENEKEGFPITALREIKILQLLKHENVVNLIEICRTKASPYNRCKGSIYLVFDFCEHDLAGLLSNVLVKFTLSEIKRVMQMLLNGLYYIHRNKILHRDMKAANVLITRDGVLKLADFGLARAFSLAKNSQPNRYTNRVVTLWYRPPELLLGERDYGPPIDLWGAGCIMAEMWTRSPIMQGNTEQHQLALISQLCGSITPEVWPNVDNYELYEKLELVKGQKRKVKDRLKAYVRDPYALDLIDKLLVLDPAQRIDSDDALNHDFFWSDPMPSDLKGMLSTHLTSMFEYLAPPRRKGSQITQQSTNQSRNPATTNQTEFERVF

Series 1 — SMILES: O=C1NC(=O)c2c1c1c3ccccc3[nH]c1n1cncc21; effect on: enzyme activity; mode: inhibitor; tested at: 0.5 µM; relative to: control
It gave 83.9% for remaining activity (BTK (Homo sapiens, UniProt Q06187)).
The remaining activity was 38% (KIT (Homo sapiens, UniProt P10721)).
The remaining activity was 82.9% (Cyclin-dependent kinase 9, with cyclin T1 (CDK9, Homo sapiens, UniProt P50750)).
For CSNK1A1 (Homo sapiens, UniProt P48729): remaining activity read 51.6%.
For PLK2 (Homo sapiens, UniProt Q9NYY3): remaining activity read 63.8%.
It gave 85.9% for remaining activity (MAPK12 (Homo sapiens, UniProt P53778)).
PRKG1 (Homo sapiens, UniProt Q13976) — remaining activity: 93.8%.
It gave 94.3% for remaining activity (AKT3 (Homo sapiens, UniProt Q9Y243)).
The remaining activity was 51.8% (MAP4K2 (Homo sapiens, UniProt Q12851)).
It gave 92% for remaining activity (EPHA5 (Homo sapiens, UniProt P54756)).
The remaining activity was 65.7% (MAP2K6 (Homo sapiens, UniProt P52564)).
The remaining activity was 65% (PRKCD (Homo sapiens, UniProt Q05655)).
MAP3K10 (Homo sapiens, UniProt Q02779) — remaining activity: 82.5%.
NEK4 (Homo sapiens, UniProt P51957) — remaining activity: 88.4%.
MAPK13 (Homo sapiens, UniProt O15264) — remaining activity: 107%.
The remaining activity was 86.6% (WNK2 (Homo sapiens, UniProt Q9Y3S1)).
It gave 61.3% for remaining activity (LRRK2 (Homo sapiens, UniProt Q5S007)).
The remaining activity was 82.3% (PRKCI (Homo sapiens, UniProt P41743)).
It gave 84.8% for remaining activity (IRAK4 (Homo sapiens, UniProt Q9NWZ3)).
CHEK1 (Homo sapiens, UniProt O14757) — remaining activity: 24.6%.
CSNK2A1 (Homo sapiens, UniProt P68400) — remaining activity: 52.6%.
The remaining activity was 94.8% (LYN (Homo sapiens, UniProt P07948)).
MKNK2 (Homo sapiens, UniProt Q9HBH9) — remaining activity: 35%.

Series 2 — effect on: kinase activity
Compound: COc1cc(C(=O)N2CCC(N3CCN(C)CC3)CC2)ccc1Nc1ncc2c(n1)N(C)c1ccccc1C(=O)N2C
PAK2; 10 µM — remaining activity: 110 ± 7%.
It gave 90 ± 4% for remaining activity (IGF-1R; 10 µM).
EPH-B3; 10 µM — remaining activity: 71 ± 3%.
The remaining activity was 89 ± 4% (CAMKKb; 1 µM).
For MST2; 10 µM: remaining activity read 98 ± 13%.
EPH-B4; 10 µM — remaining activity: 107 ± 12%.
CSK; 10 µM — remaining activity: 80 ± 12%.
SRPK1; 1 µM — remaining activity: 98 ± 9%.
For PKD1; 10 µM: remaining activity read 40 ± 20%.
For HER4; 1 µM: remaining activity read 68 ± 1%.

Series 3 — cell line: HaCaT; tested at: 100 µM; time: 18 h
C[C@H]1[C@H](OC(=O)CCC(=O)O)O[C@@H]2O[C@@]3(C)CC[C@H]4[C@H](C)CC[C@@H]1[C@@]24OO3 has a viability of 86%.
O=C(O)c1cccc(-c2noc(-c3ccccc3F)n2)c1 gave a viability of 93.2%.
With CCOC(=O)C(C)(C)Oc1ccc(Cl)cc1 the viability was 54.8%.
The viability of Nc1c2ccccc2nc2ccccc12 is reported as 23.7%.
The viability of COc1ccc(-c2ccc3cc(C(=O)O)ccc3c2)cc1[C@]12C[C@H]3C[C@H](C[C@H](C3)C1)C2 is reported as 24.9%.
With COc1ccc(-c2coc3cc(O)ccc3c2=O)cc1 the viability was 84.9%.
With O=C(O)[C@@H](S)[C@@H](S)C(=O)O the viability was 108%.
For CCCCN1CCCC[C@H]1C(=O)Nc1c(C)cccc1C, the viability was 98.8%.
The viability of COc1ncnc(NS(=O)(=O)c2ccc(N)cc2)c1OC is reported as 97%.
CC(C)(C)C(=O)C(Oc1ccc(Cl)cc1)n1ccnc1 (stereo not shown) gave a viability of 91.8%.
The viability of Cc1ccccc1N1C(=O)c2cc(S(N)(=O)=O)c(Cl)cc2NC1C (stereo not shown) is reported as 98.8%.
CN(Cc1cnc2nc(N)nc(N)c2n1)c1ccc(C(=O)N[C@@H](CCC(=O)O)C(=O)O)cc1 gave a viability of 84.9%.
NCc1ccc(S(N)(=O)=O)cc1 gave a viability of 107%.
For CC(=O)OCC[N+](C)(C)C, the viability was 95.4%.

Series 4 — tested at: 1 µM
SMILES: O=C(NCc1ncc(C(F)(F)F)cc1Cl)c1ccc2c(c1)C1(CCS(=O)(=O)CC1)[C@@H](C1CC1)N2S(=O)(=O)c1ccc(F)cc1
MAP2K4 (Homo sapiens, UniProt P45985); cell-free assay, competition with immobilised ligand — remaining binding: 76%.
The remaining binding was 100% (MELK (Homo sapiens, UniProt Q14680); cell-free assay, competition with immobilised ligand).
For BLK (Homo sapiens, UniProt P51451); cell-free assay, competition with immobilised ligand: remaining binding read 100%.
It gave 89% for remaining binding (Ribosomal protein S6 kinase alpha-1, N-terminal kinase domain (RPS6KA1, Homo sapiens, UniProt Q15418); cell-free assay, competition with immobilised ligand).
The remaining binding was 99% (STK32A (Homo sapiens, UniProt Q8WU08); cell-free assay, competition with immobilised ligand).
MARK1 (Homo sapiens, UniProt Q9P0L2); cell-free assay, competition with immobilised ligand — remaining binding: 100%.
It gave 80% for remaining binding (PAK1 (Homo sapiens, UniProt Q13153); cell-free assay, competition with immobilised ligand).
CAMKK1 (Homo sapiens, UniProt Q8N5S9); cell-free assay, competition with immobilised ligand — remaining binding: 72%.
The remaining binding was 98% (FGFR2 (Homo sapiens, UniProt P21802); cell-free assay, competition with immobilised ligand).
It gave 81% for remaining binding (MET (Homo sapiens, UniProt P08581); cell-free assay, competition with immobilised ligand).
It gave 82% for remaining binding (PIK3CA (Homo sapiens, UniProt P42336, E542K); cell-free assay, competition with immobilised ligand).
SIK3 (Homo sapiens, UniProt Q9Y2K2); cell-free assay, competition with immobilised ligand — remaining binding: 72%.
The remaining binding was 100% (FGFR3 (Homo sapiens, UniProt P22607); cell-free assay, competition with immobilised ligand).
The remaining binding was 72% (ACVRL1 (Homo sapiens, UniProt P37023); cell-free assay, competition with immobilised ligand).
For Tyrosine-protein kinase ABL1, phosphorylated (ABL1, Homo sapiens, UniProt P00519, F317I); binding: remaining binding read 80%.
MAP3K7 (Homo sapiens, UniProt O43318); cell-free assay, competition with immobilised ligand — remaining binding: 63%.
It gave 86% for remaining binding (EPHA1 (Homo sapiens, UniProt P21709); cell-free assay, competition with immobilised ligand).
For MAP3K5 (Homo sapiens, UniProt Q99683); cell-free assay, competition with immobilised ligand: remaining binding read 100%.
The remaining binding was 93% (YES1 (Homo sapiens, UniProt P07947); cell-free assay, competition with immobilised ligand).
The remaining binding was 87% (EGFR (Homo sapiens, UniProt P00533, del752-759); cell-free assay, competition with immobilised ligand).

Excerpt of the above (series 1):
The remaining activity was 94.8% (LYN (Homo sapiens, UniProt P07948)).
MAP3K10 (Homo sapiens, UniProt Q02779) — remaining activity: 82.5%.
For PLK2 (Homo sapiens, UniProt Q9NYY3): remaining activity read 63.8%.
The remaining activity was 51.8% (MAP4K2 (Homo sapiens, UniProt Q12851)).
The remaining activity was 38% (KIT (Homo sapiens, UniProt P10721)).
The remaining activity was 82.3% (PRKCI (Homo sapiens, UniProt P41743)).
PRKG1 (Homo sapiens, UniProt Q13976) — remaining activity: 93.8%.
The remaining activity was 65.7% (MAP2K6 (Homo sapiens, UniProt P52564)).
